Assay results gathered from unrelated publications.
Parts stem from different laboratories: compare values within a part only. “And” joins repeats or separate records; there may be more than shown.
Sequence of UniProt O14936 (whole entry, looked up): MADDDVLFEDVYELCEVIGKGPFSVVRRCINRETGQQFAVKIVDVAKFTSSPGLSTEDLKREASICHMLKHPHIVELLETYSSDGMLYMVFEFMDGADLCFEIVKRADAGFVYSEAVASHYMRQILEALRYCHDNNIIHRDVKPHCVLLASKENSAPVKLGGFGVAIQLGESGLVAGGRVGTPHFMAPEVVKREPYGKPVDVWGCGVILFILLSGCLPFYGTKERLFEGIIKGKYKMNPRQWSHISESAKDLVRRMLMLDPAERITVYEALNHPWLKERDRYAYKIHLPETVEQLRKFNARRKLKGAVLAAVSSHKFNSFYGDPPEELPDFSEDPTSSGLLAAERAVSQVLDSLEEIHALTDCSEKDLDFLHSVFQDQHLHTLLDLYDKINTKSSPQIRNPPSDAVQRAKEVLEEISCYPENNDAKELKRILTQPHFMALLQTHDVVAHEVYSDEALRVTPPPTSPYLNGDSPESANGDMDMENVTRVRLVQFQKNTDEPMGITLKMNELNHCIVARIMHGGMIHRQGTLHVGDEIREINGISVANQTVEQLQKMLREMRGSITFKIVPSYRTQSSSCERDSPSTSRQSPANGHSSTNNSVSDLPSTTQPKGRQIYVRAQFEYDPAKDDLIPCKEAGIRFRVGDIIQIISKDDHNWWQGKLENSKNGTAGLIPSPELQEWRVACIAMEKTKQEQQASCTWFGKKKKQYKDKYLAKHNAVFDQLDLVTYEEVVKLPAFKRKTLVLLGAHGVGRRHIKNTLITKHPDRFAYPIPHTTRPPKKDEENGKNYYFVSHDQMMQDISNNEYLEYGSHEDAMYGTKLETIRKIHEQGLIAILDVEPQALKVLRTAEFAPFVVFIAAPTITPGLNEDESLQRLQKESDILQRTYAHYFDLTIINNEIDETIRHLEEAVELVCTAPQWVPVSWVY
Sequence of UniProt P29376 (whole entry, looked up): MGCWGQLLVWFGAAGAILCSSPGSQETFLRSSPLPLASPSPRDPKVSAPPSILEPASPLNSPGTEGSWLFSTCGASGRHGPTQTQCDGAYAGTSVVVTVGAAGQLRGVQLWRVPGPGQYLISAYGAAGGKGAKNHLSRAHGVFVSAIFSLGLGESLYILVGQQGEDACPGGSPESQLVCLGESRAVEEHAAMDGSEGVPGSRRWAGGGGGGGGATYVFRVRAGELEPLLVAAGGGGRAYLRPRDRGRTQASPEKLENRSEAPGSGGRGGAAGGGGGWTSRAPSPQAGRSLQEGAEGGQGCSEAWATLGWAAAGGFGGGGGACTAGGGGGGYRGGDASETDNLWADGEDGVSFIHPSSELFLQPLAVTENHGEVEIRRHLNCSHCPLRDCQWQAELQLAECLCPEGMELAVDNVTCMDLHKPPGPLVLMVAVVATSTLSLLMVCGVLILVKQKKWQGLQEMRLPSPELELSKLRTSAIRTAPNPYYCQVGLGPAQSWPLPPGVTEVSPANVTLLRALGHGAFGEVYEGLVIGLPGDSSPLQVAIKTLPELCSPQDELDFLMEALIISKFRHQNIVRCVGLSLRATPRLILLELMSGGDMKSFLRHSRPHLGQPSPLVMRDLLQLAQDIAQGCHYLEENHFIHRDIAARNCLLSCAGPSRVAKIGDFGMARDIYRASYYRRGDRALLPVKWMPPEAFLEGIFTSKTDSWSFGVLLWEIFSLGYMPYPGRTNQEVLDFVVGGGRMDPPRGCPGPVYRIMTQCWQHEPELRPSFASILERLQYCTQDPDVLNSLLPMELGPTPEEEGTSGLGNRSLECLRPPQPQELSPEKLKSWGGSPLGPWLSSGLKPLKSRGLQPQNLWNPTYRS
Sequence of UniProt P48729 (whole entry, looked up): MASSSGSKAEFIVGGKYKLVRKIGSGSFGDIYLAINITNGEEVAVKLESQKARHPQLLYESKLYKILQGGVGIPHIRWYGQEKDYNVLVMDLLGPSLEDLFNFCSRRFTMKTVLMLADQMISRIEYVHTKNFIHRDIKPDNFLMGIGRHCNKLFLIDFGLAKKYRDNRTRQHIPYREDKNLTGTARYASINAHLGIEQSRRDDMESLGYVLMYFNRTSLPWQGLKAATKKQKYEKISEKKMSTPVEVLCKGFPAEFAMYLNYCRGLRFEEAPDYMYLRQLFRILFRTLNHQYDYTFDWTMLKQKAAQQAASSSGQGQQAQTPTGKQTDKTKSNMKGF
Sequence of UniProt Q9UHD2 (whole entry, looked up): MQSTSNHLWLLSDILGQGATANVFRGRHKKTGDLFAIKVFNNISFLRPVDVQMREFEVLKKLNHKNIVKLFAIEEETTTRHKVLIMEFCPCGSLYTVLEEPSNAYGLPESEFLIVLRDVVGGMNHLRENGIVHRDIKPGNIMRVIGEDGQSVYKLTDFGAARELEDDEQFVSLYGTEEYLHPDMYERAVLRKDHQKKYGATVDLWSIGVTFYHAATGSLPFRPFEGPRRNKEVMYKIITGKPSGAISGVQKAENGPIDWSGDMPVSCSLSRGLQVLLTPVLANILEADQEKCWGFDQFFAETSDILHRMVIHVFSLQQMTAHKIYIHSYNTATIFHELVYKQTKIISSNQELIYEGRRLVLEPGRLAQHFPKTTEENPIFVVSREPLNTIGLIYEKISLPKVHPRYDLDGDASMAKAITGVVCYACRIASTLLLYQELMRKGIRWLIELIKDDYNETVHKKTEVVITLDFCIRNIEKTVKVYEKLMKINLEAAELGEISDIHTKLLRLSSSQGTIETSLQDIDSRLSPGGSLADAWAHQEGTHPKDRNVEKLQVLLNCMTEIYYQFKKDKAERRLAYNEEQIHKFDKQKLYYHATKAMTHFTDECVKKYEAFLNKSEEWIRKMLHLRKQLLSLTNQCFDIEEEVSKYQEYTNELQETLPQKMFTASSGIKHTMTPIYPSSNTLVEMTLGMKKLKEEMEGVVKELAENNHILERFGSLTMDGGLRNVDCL
Sequence of UniProt Q96L34 (whole entry, looked up): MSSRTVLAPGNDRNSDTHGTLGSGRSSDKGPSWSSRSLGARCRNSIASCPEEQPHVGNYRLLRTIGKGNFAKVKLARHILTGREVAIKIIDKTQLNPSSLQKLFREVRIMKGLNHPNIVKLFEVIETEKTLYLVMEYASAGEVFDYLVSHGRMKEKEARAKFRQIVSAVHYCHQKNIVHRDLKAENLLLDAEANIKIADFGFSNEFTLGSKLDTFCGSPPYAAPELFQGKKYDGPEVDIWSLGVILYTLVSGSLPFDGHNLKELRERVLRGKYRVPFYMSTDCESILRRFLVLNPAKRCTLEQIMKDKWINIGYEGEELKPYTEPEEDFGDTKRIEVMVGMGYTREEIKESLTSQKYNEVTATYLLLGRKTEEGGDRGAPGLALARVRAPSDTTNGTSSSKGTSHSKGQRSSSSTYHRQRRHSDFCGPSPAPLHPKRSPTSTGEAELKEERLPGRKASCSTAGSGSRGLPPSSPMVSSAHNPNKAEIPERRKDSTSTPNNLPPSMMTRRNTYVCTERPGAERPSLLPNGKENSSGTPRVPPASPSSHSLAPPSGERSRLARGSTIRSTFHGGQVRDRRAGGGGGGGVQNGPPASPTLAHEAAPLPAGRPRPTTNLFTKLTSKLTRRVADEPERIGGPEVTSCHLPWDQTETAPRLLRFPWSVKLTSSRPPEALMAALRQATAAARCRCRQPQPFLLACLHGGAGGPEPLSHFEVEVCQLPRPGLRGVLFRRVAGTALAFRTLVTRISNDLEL
Sequence of UniProt Q15835 (whole entry, looked up): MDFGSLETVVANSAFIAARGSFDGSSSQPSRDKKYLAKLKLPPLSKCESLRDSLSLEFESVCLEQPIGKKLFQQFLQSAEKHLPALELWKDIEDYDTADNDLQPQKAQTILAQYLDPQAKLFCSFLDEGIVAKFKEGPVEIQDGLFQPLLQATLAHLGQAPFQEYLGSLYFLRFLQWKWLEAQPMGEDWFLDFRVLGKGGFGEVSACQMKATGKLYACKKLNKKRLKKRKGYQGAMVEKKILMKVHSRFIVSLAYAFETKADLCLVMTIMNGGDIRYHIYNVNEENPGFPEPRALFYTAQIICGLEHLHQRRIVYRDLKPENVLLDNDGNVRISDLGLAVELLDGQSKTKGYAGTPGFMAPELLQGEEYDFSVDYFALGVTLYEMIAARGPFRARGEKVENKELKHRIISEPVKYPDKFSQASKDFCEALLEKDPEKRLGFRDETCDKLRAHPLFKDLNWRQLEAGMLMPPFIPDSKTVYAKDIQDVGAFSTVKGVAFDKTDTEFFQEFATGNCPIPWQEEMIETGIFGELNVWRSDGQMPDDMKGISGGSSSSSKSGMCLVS
Sequence of UniProt Q6P3R8 (whole entry, looked up): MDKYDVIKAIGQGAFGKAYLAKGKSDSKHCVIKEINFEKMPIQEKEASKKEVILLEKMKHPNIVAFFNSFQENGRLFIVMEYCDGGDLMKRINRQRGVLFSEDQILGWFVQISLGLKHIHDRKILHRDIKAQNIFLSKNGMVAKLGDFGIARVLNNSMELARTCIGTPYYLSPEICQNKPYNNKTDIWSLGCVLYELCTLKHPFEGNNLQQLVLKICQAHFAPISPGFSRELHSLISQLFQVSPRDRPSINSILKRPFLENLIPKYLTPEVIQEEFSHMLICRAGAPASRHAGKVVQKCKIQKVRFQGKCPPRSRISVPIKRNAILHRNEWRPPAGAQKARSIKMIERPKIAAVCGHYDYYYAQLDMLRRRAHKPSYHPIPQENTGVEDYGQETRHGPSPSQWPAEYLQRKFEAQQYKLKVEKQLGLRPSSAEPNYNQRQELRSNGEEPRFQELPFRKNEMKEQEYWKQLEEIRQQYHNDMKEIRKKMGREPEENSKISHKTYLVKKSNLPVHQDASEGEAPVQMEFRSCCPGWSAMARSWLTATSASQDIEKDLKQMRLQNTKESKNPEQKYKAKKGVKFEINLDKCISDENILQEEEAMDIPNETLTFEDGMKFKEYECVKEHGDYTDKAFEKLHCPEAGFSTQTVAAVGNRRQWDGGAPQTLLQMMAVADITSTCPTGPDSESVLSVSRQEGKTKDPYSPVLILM

Sample 1
Compound: COCC1CC2C(CCC3C(O)CCC32)c2ccc(O)cc21 (stereo not drawn)
SK-OV-3; microarray, measured: CDC25B; 25 µM; relative to: untreated — “mRNA level ratio”: 1.17.
The “mRNA level ratio” was 1.67 (PANC-1; DNA microarray, measured: TMEM108; 100 µM; relative to: untreated cells).
It gave 0.869 and 0.865 and 0.849 and 0.878 and 0.818 for “mRNA level ratio” (PANC-1; DNA microarray, measured: ACTB; 25 µM; relative to: untreated cells).
For A549; microarray, measured: CCL11; 25 µM; relative to: untreated: “mRNA level ratio” read 553.
The “mRNA level ratio” was 1 and 1.01 and 0.937 and 0.949 and 0.942 (SK-OV-3; DNA microarray, measured: KIF20A; 25 µM; relative to: untreated cells).
A549; DNA microarray, measured: C6; 25 µM; relative to: untreated cells — “mRNA level ratio”: 219.
PANC-1; DNA microarray, measured: KIF20A; 100 µM; relative to: untreated cells — “mRNA level ratio”: 1.43 and 1.45 and 1.44.
For SK-OV-3; microarray, measured: CCL11; 25 µM; relative to: untreated: “mRNA level ratio” read 226.

Sample 2
SMILES: Cn1cc(-c2cccc(CN3CCC4(CC3)COc3c4ccc4c3CN([C@H]3CCC(=O)NC3=O)C4=O)c2)cn1
The half-life was 2.03 h and 1.96 h and 1.82 h (rat; intravenous, 1 mg/kg).
For human plasma: half-life read 8.25 h.
For monkey plasma: half-life read 24.8 h.
For human liver microsomes: half-life read greater than 2 h.
It gave 1.96 h and 3.24 h and 2.69 h for half-life (rat; oral, 3 mg/kg).
The half-life was 2.63 h (rat, plasma; oral, 2.98 mg/kg, group mean).

Sample 3
SMILES: CC[C@@]1(c2cccc(C(F)(F)F)c2)C2=C(Nc3n[nH]cc31)[C@H](F)C(C)(C)CC2=O (single isomer, unassigned)
Tested at: 1 µM
For NEK5 (Homo sapiens, UniProt Q6P3R8); kinase binding, KINOMEscan; relative to: DMSO control: remaining binding read 100%.
It gave 61% for remaining binding (TBK1 (Homo sapiens, UniProt Q9UHD2); binding, competition with immobilised ligand).
It gave 96% for remaining binding (CASK (Homo sapiens, UniProt O14936); kinase binding, KINOMEscan; relative to: DMSO control).
It gave 56% for remaining binding (GRK1 (Homo sapiens, UniProt Q15835); kinase binding, KINOMEscan; relative to: DMSO control).
The remaining binding was 100% (PTK2B (Homo sapiens, UniProt Q14289); kinase binding, KINOMEscan; relative to: DMSO control).
For LTK (Homo sapiens, UniProt P29376); kinase binding, KINOMEscan; relative to: DMSO control: remaining binding read 100%.
The remaining binding was 100% (MARK4 (Homo sapiens, UniProt Q96L34); kinase binding, KINOMEscan; relative to: DMSO control).
It gave 95% for remaining binding (CSNK1A1 (Homo sapiens, UniProt P48729); kinase binding, KINOMEscan; relative to: DMSO control).

Sample 4
SMILES: CC(C)C[C@@H]1NC(=O)[C@@H](N(C)C(=O)[C@@H](NC(=O)[C@@H]2C[C@@H](F)CN2C(=O)C2(C(F)(F)F)CC(F)(F)C2)C2CC2)CCCCCCCN(C)C(=O)[C@H](Cc2cc(Cl)cnc2OC2CC2)N(C)C1=O
Route: oral
For NSG mice, sample B SCLC PDX; 100 mg/kg twice daily, day 15: tumour volume read 210 mm3 and 233 mm3 and 211 mm3 and 235 mm3 and 208 mm3.
The tumour volume was 243 mm3 and 249 mm3 and 319 mm3 and 416 mm3 and 390 mm3 (NSG mice, sample B SCLC PDX; 100 mg/kg twice daily, day 29).
It gave 247 mm3 and 238 mm3 and 323 mm3 and 226 mm3 and 230 mm3 for tumour volume (NSG mice, sample B SCLC PDX; 100 mg/kg twice daily, day 22).
The tumour volume was 373 mm3 and 199 mm3 and 192 mm3 and 306 mm3 (mouse, sample A SCLC PDX; 100 mg/kg three times daily, day 21).
NSG mice, sample B SCLC PDX; 100 mg/kg twice daily, day 1 — tumour volume: 213 mm3 and 180 mm3 and 173 mm3 and 176 mm3 and 168 mm3.

Excerpt of the above (sample 3):
It gave 56% for remaining binding (GRK1 (Homo sapiens, UniProt Q15835); kinase binding, KINOMEscan; relative to: DMSO control).
The remaining binding was 100% (PTK2B (Homo sapiens, UniProt Q14289); kinase binding, KINOMEscan; relative to: DMSO control).
It gave 61% for remaining binding (TBK1 (Homo sapiens, UniProt Q9UHD2); binding, competition with immobilised ligand).
The remaining binding was 100% (MARK4 (Homo sapiens, UniProt Q96L34); kinase binding, KINOMEscan; relative to: DMSO control).
It gave 95% for remaining binding (CSNK1A1 (Homo sapiens, UniProt P48729); kinase binding, KINOMEscan; relative to: DMSO control).
